Measured values gathered from unrelated publications.
± marks the error that the study gave.
Cell line: HUVEC

SMILES	test	setting	scale	quantity	result
CC[C@H](C)[C@H](NC(=O)[C@H](CCCCN)NC(=O)C[C@H](Cc1ccccc1)NC(=O)[C@H](CC(C)C)NC(=O)CN)C(=O)N[C@H](CC(=O)N[C@@H](CCCCN)C(=O)N[C@@H](CCCCN)C(=O)N[C@H](CC(=O)N[C@@H](CC(C)C)C(=O)N[C@@H](CCCCN)C(=O)N[C@@H](CO)CC(=O)N[C@@H](Cc1ccccc1)C(N)=O)[C@@H](C)CC)[C@@H](C)CC	cytotoxicity			IC50	14.8 mg/L
COC(OC)c1ccc(-c2ccc(O)cc2)c(C(=C2C=CC(=O)C=C2)c2ccc(O)cc2)c1C#Cc1ccc(O)cc1	cell growth or viability, MTT	48 h		IC50	> 50 µM
COc1ccc(CC[C@H]2OC(=O)[C@@H]3CCCCN3C(=O)C(=O)C(C)(C)COC(=O)C=CCCN(C)C(=O)[C@H](CC(C)C)N(C)C(=O)[C@H]3CCCN3C(=O)[C@H](Cc3ccccc3)N(C)C(=O)[C@H](Cc3ccc(F)cc3)NC(=O)CCC(=O)Nc3cccc2c3)cc1OC	thymidine uptake, inhibitor			IC50	11.1 ± 0.1 µM
CNC(NN=Cc1ccc([N+](=O)[O-])o1)=[S+][Au-][Cl]	tube branching nodes, tube formation	IC10, 16 h	reference: untreated	inhibition	40%
Oc1ccc(C#Cc2c(O)ccc3c2C(c2ccc(O)cc2)(c2ccc(O)cc2)c2cc(O)ccc2-3)cc1	cell growth or viability, MTT	48 h		IC50	> 50 µM
CC[C@H](C)[C@H](NC(=O)[C@H]1CCC[C@@H]1NC(=O)[C@H](CCCCN)NC(=O)[C@H](CCCCN)NC(=O)C[C@H](C)NC(=O)[C@H](CC(C)C)NC(=O)[C@H](CCCCN)NC(=O)[C@H]1CCC[C@@H]1NC(=O)[C@H](CC(C)C)NC(=O)CN)C(=O)N[C@@H](CCCCN)C(=O)N[C@@H](CO)CC(=O)N[C@@H](Cc1ccccc1)C(N)=O	cytotoxicity			IC50	299 mg/L
COc1ccc(CC[C@H]2OC(=O)[C@@H]3CCCCN3C(=O)C(=O)C(C)(C)COC(=O)C=CCCN(C)C(=O)[C@H](c3ccccc3)NC(=O)[C@@H](Cc3ccccc3)N(C)C(=O)[C@@H]3CCCN3C(=O)[C@H](CC(C)C)N(C)C(=O)CCC(=O)Nc3cccc2c3)cc1OC	thymidine uptake, inhibitor			IC50	> 20 µM
C/C1=C\CC[C@H](C)OC(=O)C[C@H](c2ccc(O)cc2)NC(=O)[C@@H](Cc2ccc(O)c(I)c2)N(C)C(=O)[C@H](C)NC(=O)[C@@H](C)C1	cell growth or viability			GI50	0.0075 µM
CC[C@H](C)[C@H](NC(=O)C[C@H](CCCCN)NC(=O)[C@H](CCCCN)NC(=O)C[C@@H](NC(=O)[C@@H](NC(=O)C[C@H](CCCCN)NC(=O)[C@H](Cc1ccccc1)NC(=O)C[C@H](CC(C)C)NC(=O)CN)[C@@H](C)CC)[C@@H](C)CC)C(=O)N[C@H](CC(=O)N[C@@H](CCCCN)C(=O)N[C@@H](CO)CC(=O)N[C@@H](Cc1ccccc1)C(N)=O)CC(C)C	cytotoxicity			IC50	23.4 mg/L
